Assay results from different studies.
A part holds a random share of what one study measured.

Set 1 — method: RNAcompete; molecule type: RNA; sample: in vitro; concentration: 20 nM; notes: 7-mer, probes averaged, single round; reference: mean of 7-mers; direction: higher = stronger binding
Target: PABPC1L2, full length, GST fusion (mouse, UniProt A0ABA7IW68)
Target sequence (chain): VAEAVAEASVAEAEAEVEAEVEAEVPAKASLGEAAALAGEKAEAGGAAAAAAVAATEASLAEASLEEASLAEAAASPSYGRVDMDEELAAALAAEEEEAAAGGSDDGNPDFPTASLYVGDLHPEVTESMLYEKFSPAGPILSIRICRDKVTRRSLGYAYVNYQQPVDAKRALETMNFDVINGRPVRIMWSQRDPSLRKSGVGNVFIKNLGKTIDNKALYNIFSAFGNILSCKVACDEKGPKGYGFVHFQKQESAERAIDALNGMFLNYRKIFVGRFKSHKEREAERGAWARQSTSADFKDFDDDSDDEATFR
Strand | 7-mer Z-score
GGAAAGU | 0.0877
CGAUCGA | -0.106
GCUAGCG | -0.05
GGAUGAU | -0.0337
GUAUGCU | -0.151
UUUUUCA | -0.211
CAUCUGA | -0.159
CGGUUUA | -0.267
CAGGCAA | 0.321
GUUAGAG | -0.0645
CCGAGUC | -0.277
CAGGUUG | -0.0627
AUGAUGA | -0.0645
UCUCUUA | -0.266
GGUGACA | 0.202
CUCGCAA | -0.264
GGGUCAG | 0.332

Set 2 — method: RNA Bind-n-Seq; molecule type: RNA; sample: in vitro; concentration: 20 nM; notes: 6-mer, flanks averaged, single round; added: 150 mM KCl; reference: input library; direction: higher = stronger binding
Target: TAR DNA-binding protein 43, full length, His tag (TARDBP, Homo sapiens, UniProt Q13148, residues 1-414)
Strand | 6-mer enrichment (R)
AAUGAC | 0.666
AUUUUC | 0.625
AUCUCA | 0.533
UCGGAA | 0.811
CGGGAC | 2.09
GCGCAC | 0.982
UUUCGU | 0.593
GCAGGA | 1.63
CCCCAA | 0.666
AUCCGA | 0.606
CAUGGA | 0.884
AUUAAA | 0.6
CCUGAG | 0.865
UUAACC | 0.59
CAGUAA | 0.646
GCGAGC | 1.42
UAUCAG | 0.64
CGUCCA | 0.65
CGACGU | 0.807
UAGAGC | 0.815
CUCUAG | 0.607
GGUUCU | 0.777
AUGUUG | 0.884
UCCUGA | 0.606

Set 3 — method: protein-binding microarray; molecule type: double-stranded DNA, one strand shown; sample: in vitro; concentration: 0.8 µM; notes: whole 60-bp probe, no competitor; direction: higher = stronger binding; all sequences stand within: … GTCTTGATTCGCTTGACGCTGCTG
Target: Centromere-binding protein 1, full length, N-terminal tag (CBF1, Saccharomyces cerevisiae, UniProt P17106, residues 1-351)
Sequence of UniProt P17106 (whole entry, looked up): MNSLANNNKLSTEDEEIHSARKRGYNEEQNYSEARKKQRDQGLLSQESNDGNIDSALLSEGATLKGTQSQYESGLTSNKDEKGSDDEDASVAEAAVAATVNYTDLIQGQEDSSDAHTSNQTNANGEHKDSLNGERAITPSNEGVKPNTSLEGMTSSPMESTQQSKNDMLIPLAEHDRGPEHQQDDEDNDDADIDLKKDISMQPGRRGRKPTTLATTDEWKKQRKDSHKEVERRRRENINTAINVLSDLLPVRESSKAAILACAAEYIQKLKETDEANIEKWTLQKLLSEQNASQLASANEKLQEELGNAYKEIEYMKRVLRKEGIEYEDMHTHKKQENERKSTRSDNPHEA
Strand | fluorescence intensity [a.u.]
CTATTCTCTGTTCGTCATATGATAACTTAAGCATTC | 1030
GAATAACAGCAAGAAAACGTCACATTTTATGGATAG | 566
GAAACGACACCATGTCTGATGCATTTTAGAAACTAG | 521
CTATATTACACGTGATTTAATATATCCTGTTTTTTC | 12800
GAACTCCAAACAATTCATGTCACTAAGCCCGGTTAG | 570
CTAGCTCAACTTCATCACGTCCTTGGTTTTTACTTC | 596
CTATGATAATCACTGCACGTGACTATCATGTGATTC | 20300
CTATGGAAGAAAATGGACGTGACGAATCAATAATTC | 627
CTATGCCTCCGCTATACCGTGATGAAGGTTAATTTC | 570
GAAAGCAATACAGGTGGTGGTTCAAGCAAAACATAG | 568
CTATGGACTAGGCATCACCCAGACTTTACTTTTTTC | 515
GAACCCGTACCAGGAAGCGTGATAGAATCGGTATAG | 627
GAAAATATTTAAGGTGTCACGGTGATTGCAAGATAG | 830
CTAATAGACACCACAAACGTGCGCAAGAAACCGTTC | 595
GAATTTTATATACATCAGGTCAAACATAAACCATAG | 552
CTAGTTTTTTTAAACCATGTGCGAAGAAATTCTTTC | 1490
GAAAAGATCACGTACCATGTGCAGAATCTGAGATAG | 1920
GAACGTAAAGAACATCAGACCAGAAAATTTTAATAG | 536
TGTACGAAGCTATGCGGTCACATTATAGTAGTTAGG | 691
CTACCAGTTAGGTACCATGTGGCATGCTGTTTTTTC | 620
TGTACGAAGCTATTGCACGTGAATATAGTAGTTAGG | 4130
GAATTTTTCCCACACGTGCTTATGGGCCGCATTTAG | 7730
GAAATTGTACTATGTGATGTTACTGATACATCATAG | 554
TGTACGAAGCTATGGCACATGTGTATAGTAGTTAGG | 878
TGTACGAAGCTATACCACGTGACTATAGTAGTTAGG | 17900

Set 4 — method: RNA Bind-n-Seq; molecule type: RNA; sample: in vitro; concentration: 365 nM; reference: no-protein control; direction: higher = stronger binding
Target: RNA binding protein fox-1 homolog 2, RRM domain, GST-SBP tag (RBFOX2, Homo sapiens, UniProt O43251-10, residues 100-194)
Notes: natural RNA segment, single round, ends assumed
All sequences stand within: GGGAGUUCUACAGUCCGACGAUC … UGGAAUUCUCGGGUGCCAA
Residues (chain): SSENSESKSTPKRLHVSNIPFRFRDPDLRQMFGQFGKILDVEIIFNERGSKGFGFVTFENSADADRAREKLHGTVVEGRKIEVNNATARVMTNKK
Strand | RBNS enrichment (R)
GUGUCACCCUCUACCAUCUGUAAACAACUGGGUGCCUUCCCCGACCACACCCCAAUGCCUUCCCAGCUUGGAAGCCAAGGCAGCUGAUGAAGGGAGCUCAGGAGAGCCGU | 0.778
UCUUCAAUAAAGAGAUUUAAUAGCCAUUUCAAGAAAUCCCAUAAAGAACCUCUCUAUGUCCCUUUUUUUAAUUUAAAAAAAAUGACUCUUGUCUAAUAUUCGUCUAUAAG | 1.05
AAAUUUCCAAAUUAAAAACGUAUAUGUGUACUCUUUUAAAAAGGAAUUUGAUAGUUCUUGUCAAAUGAGAAAAUUUAAAGGUAAGAGUUAUGGUUUGUCUUAUGCUGCAU | 0.893
UUGUAUUUUGGAAGACAGGUUUUUUAAAGAAACAUUUUCCUCAGAUUAAAAGAUGAUGCUAUUACAACUAGCAUUGCCUCAAAAACUGGGACCAACCAAAGUGUGUCAAC | 0.274
GGCCCUAGCCUCUGGCAGAGCCUGUUCCUGGCCAAACUGUGGCUACAGCUGGAGGGUCAGGAACUGUUACCUUCCUUCCCCUUGGCAUUAAUAAAUUUAAGUUAAUCCUU | 0.26
AAAAGAUGUGGGUGGAUAGUAUAUUUCUACAGGUGGGUCAGGUUUGGUAGCAGUUUGAUGUGCUGGGUUCUGUCAUCUGUUCUGAUGAGAAGAUUUUUAUCUUCUGCAGU | 0.605
UCUUGAAAACGGUACAUAUUUUAGUAUUUGUGCAGAAAAACAAGUCCUAAAGUAUUUGUUUUUAUUUGUACCAUCCACUUGUGCCUUACUGUAUCCUGUGUCAUGUCCAA | 0.375
UCUGGAAGAACAUCAAGAUAUCUUUUUGUGGAUCAAGUUUGAGUACUUGAUCAUUUUUAUAUUACUUUUGUAAAUAUUCUUGGCCACAUUCUACUUCAGCUCUGGAUGUG | 0.571
UAAACAGGCUUCUGGCAGUAGCUUUGGUUCCUAUCCCAUCGAAAUUCCCCAAAGCCCUGGGCCACUGCCAUUGGGUUAGUCAAGAUGAAGGAGGAGGACUGGCUGCCUCC | 0.41
UUACUUCCCCUUCAUGCCUGUCUCCAGUAUCCACCCCAGCUUCUUUCUGAAUGUAAGGGAUUAAGAUAUCAGCUGUAAACUUAACUUUGUCUCCGAAUCUGAGAAUUCGA | 1.01
GGUUUUGGUUUGUUUGUUUGUUUUUUCUUUUUUUGAGGAAUUUUCAGGGAAGUGAGGAAACCCUUGGGAGAGGACUUUGUACGCGCUGUGUAGGUGUUAGAUCUAAUUAC | 1.41
AUUUCGAUUGUGUGACAGAUUGAAAUUUAUUGUUUACAUUGGGGAAUGUAUCUCAAAUUUUUAAAUAGAAGAGUAAUAAACAGACUUUAAAGCAAAUAUUAAGAUUUUUA | 0.814

Set 5 — method: RNA Bind-n-Seq; molecule type: RNA; sample: in vitro; concentration: 1 µM; notes: whole 134-nt RNA, ends assumed; added: 150 mM KCl; reference: input library; direction: higher = stronger binding
Target: Ras GTPase-activating protein-binding protein 1, RRM domain (G3BP1, Homo sapiens, UniProt Q13283)
Sequence of UniProt Q13283 (whole entry, looked up): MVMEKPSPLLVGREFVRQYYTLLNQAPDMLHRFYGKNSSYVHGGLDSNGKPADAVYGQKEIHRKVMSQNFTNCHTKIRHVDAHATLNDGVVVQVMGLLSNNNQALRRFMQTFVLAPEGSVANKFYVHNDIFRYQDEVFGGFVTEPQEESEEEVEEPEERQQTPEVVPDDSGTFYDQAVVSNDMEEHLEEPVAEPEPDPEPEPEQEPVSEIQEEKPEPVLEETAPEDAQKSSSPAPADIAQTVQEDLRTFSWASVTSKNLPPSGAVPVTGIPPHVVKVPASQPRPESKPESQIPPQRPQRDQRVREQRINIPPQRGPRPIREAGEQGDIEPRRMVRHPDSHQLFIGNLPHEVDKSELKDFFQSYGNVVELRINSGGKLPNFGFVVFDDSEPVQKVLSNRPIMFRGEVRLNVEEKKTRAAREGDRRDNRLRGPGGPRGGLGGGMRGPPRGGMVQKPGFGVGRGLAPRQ
All sequences stand within: GGGAGUUCUACAGUCCGACGAUC … UGGAAUUCUCGGGUGUCAAGG
Strand | log2 enrichment
GCAGGAAGUAAAAACAAAGGGAAAUGCUUCGGAUAGUGGCAGGGGUGGGGGUUGCUAAGGAAAGGGUGGGAUGGGAGUGGGUAAAGAGUU | 1.41
AGGGAGGUGGAUUUUGUUUAUUUUUUUAGCUCAUUUCCAGGGGUGGGAAUUUUUUUUUAAUAUGUGUCAUGAAUAAAGUUGUUUUUGAAA | 1.99
GCAGGAAGUAAAAACAAAUGUAAAUGCUUCGGAUAGUGGCAGGGGUGGGGGUUGCUAAGGAAAGGGUGGGAUGGGAGUGGGUAAAGAGUU | 1.27
UAACUUUAGAGGAGGAUCUGAUGGAUAUGGCAGUGGACGUGGAUUUGGGUAUGGCUAUAAUGGGUAUGGAGGAGGACCUGGAGGUGGCAA | -0.635
ACCAUGCAGGUGGGCAUCUUUGGGAAGUGGGGCAAGGGGGGGAUAGGGAGGGGGGUAACACUUUGGGAACAGGUGGUCCCAGGUCGUUAC | 0.854
AAGUCCUGUGCUACACAUCGUAUGUACCGAAUCGGAAAGGUUUUUGGAAAAAAAGGAAAGUAUUAUGUUACGCCGUUCGGAUCUGCACUU | -0.176
CGGCCCUGGUGGCAUGCGGGGAGGAAGAGGUGGCCUCAUGGAUCGUGGUGGUCCCGGUGGAAUGUUCAGAGGUGGCCGUGGUGGAGACAG | 0.983
AAGUCCUGUGCUACACAUCGUAUGUACCGAAUCGGUUUUUUUGGUGGUUUUUUUGGAAAGUAUUAUGUUACGCCGUUCGGAUCUGCACUU | -0.474
UAACUUUAGAGGAGGAUCUGAUGGAUAUGGCAGUGGACGUGGAUUUGGGGAUGGCUAUAAUGGGUAUGGAGGCGGACCUGGAGGUGGCAA | -0.331
AGUCCUGUGCUACACAUCGUAUGUACCGAAUCGGGGUUUUGGUUUUGGGUUUUGGGGAAAGUAUUAUGUUACGCCGUUCGGAUCUGCACU | -0.186
AGUCCUGUGCUACACAUCGUAUGUACCGAAUCGGAAAAAGGAAAAAGGGAAAAAGGGAAAGUAUUAUGUUACGCCGUUCGGAUCUGCACU | -0.149
AAGUCCUGUGCUACACAUCGUAUGUACCGAAUCGGGUGGGAAAAAAAGGGAAAGGGAAAGUAUUAUGUUACGCCGUUCGGAUCUGCACUU | 0.75
CCUCAAGUCCUGUGCUACACAUCGUAUGUACCGAAUCGGGUGGGAGGGAGGGAAAGUAUUAUGUUACGCCGUUCGGAUCUGCACUUCCAG | 0.526
CAAGUCCUGUGCUACACAUCGUAUGUACCGAAUCGGGCCCGGGGCCCGGGCCCGGAAAGUAUUAUGUUACGCCGUUCGGAUCUGCACUUC | -0.722

Set 6 — method: protein binding microarray; molecule type: double-stranded DNA, one strand shown; sample: in vitro; concentration: not given; reference: not given; direction: higher = stronger binding
Target: Histone acetyltransferase KAT6A, winged helix 1, GST fusion (KAT6A, Homo sapiens, UniProt Q92794, residues 1-85)
Notes: 8-mer, flanks averaged, mean of 2 arrays, mostly near background
Construct (chain): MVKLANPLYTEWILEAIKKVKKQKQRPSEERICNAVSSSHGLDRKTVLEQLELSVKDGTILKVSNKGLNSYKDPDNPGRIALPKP
Strand | E-score
TCTTTTCA | -0.0441
AACAGGAC | -0.194
CAACCTCC | 0.0669
ACATTTTG | -0.299
ACTACTCT | -0.0298
CGACGCCG | 0.454
CGCTATAC | 0.197
GTTTCCTA | -0.14
CGCGAGCG | 0.411
GGACGTAA | 0.106
ATGTTAAA | -0.138
CGCGCGCA | 0.458
GCATCCAC | 0.0709
CTGTGGAA | -0.152
GTAATTGA | 0.103
CTCTAACC | -0.0567
CTGAGCAC | -0.179
CATAATCC | -0.244
ATTTCAAC | -0.144
AAGATCGG | 0.229
ATGAGCTA | 0.0126
ACTAGTAC | -0.0732
ACTGTAAA | -0.105

For quick reference, copied from above (set 2):
Strand | 6-mer enrichment (R)
UAGAGC | 0.815
CGGGAC | 2.09
CUCUAG | 0.607
AAUGAC | 0.666
CGACGU | 0.807
CAGUAA | 0.646
CCCCAA | 0.666
UUAACC | 0.59
AUCCGA | 0.606
UCGGAA | 0.811
GCGCAC | 0.982
